Assay results collected from several papers.
Every numbered part comes from another study and shows a few of its results, in no order.

Set 1
Target: RING finger protein unkempt homolog, zinc fingers 1-6, GST-SBP tag (UNK, Homo sapiens, UniProt Q9C0B0, residues 30-357)
Chain of UniProt Q9C0B0 (30-357, looked up): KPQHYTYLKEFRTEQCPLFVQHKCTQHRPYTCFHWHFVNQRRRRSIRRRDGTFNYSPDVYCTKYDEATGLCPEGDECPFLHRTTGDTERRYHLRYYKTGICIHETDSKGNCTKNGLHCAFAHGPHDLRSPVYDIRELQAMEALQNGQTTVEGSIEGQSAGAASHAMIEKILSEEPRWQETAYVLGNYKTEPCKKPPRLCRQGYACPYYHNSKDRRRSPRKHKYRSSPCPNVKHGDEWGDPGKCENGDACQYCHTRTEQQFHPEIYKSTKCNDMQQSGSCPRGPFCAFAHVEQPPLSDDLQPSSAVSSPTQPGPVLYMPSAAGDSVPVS
Method: RNA Bind-n-Seq
Form: RNA
Matrix: in vitro
Concentration: not given
Notes: RNA with constant flanks, human and mouse sites, ends assumed
Relative to: input RNA pool
Reading: higher = stronger binding
Quantity: bound/input enrichment
Constant ends, left off below: GGGAGUUCUACAGUCCGACGAUC … CAACAGAGGAUUGAGCAUCA
UUUCUUACCGUGUAUAUCAAGAGCAUCUUCCUUAAUCAGGUCUUGGCUGAGAUCAACAAGGAGAUUGAAGGCGUCACCAAAACCUCAGACCCCUUGAAGAUCCUGGCUAAUGCAGACACC: 0.113 ratio
AACAAUGCAUGUAAGUCUGACAUCAUGAUGUCCAUCCGGCAAAGAAGAGAAAUAAGAGCCACAGAAGUUUCUGAAGACUUUCCAGCCCAAGAAGAAAAUGUGAAGUUGGAAAAUAAAUUG: 0.173 ratio
CUUCAUUUUACACUAAAGCUUAAUGUCACUAAGUUUCAUGUCUGUACAGAUUAUUUAAAUCAUGGAAAUGAAAAAAAUGUUCUCUGCUUGCUACCAAAGGACAAACUCUUGGAAAUGAAC: 0.143 ratio
AUCCUUUCUGGCACAUCUGACCUACUGCUUACCUUCGAUGAGGCUGAGGUUCGUAAAAUUAUUAGGGUUUGCAAAGGAAUUUUGGAAUAUCUUACAGUGGCAGAGGUAGUGGAAACUAUG: 0.351 ratio
AACCCAAGUAUUUUUAUGUAAAAAGAUUUCAAUUUAGAAUACUUCAUUUUUGAGAUGGAGUUUAGAAUAUUUCAUUUUGAAAUGGAACGAAAGGGUUAGGUUUUGAUGUAAAAGACAGGA: 2.15 ratio
CGAGAUGAUACAAUAUACGAGGAUGAAGAUGUAAAAGAAGCCAUAAGAAGACUUCCUGAGAACCUUUAUAAUGACAGGAUGUUUCGCAUUAAGAGGGCACUGGACCUGAACUUGAAGCAU: 0.204 ratio
CCUGGGUGACAGAGUGAGACCCUGUCUCUAAAAAAAAAAAAAAGAAAAUAAAGAAAAAAGAAUGUCAGCAUGUCAGCGUUCCUCCAAGGAGUGGCUUUGGGUCAAGAAGACAGGCUGGCU: 0.497 ratio
AUUGUGGAUAAAGUUUCCAGUGUAUCCAGUUCAGCACUGGUAUCUUCCCUGCACAUGAUGAAGAUAAGCUAUGAUGUGGUUAAGCGCUGGAUCAAUGAAGCCCAAGAAGCUGCAUCAAGU: 0.115 ratio

Set 2
Target: Ras GTPase-activating protein-binding protein 1, C-terminal RGG region (G3BP1, Homo sapiens, UniProt Q13283)
Chain of UniProt Q13283 (whole entry, looked up): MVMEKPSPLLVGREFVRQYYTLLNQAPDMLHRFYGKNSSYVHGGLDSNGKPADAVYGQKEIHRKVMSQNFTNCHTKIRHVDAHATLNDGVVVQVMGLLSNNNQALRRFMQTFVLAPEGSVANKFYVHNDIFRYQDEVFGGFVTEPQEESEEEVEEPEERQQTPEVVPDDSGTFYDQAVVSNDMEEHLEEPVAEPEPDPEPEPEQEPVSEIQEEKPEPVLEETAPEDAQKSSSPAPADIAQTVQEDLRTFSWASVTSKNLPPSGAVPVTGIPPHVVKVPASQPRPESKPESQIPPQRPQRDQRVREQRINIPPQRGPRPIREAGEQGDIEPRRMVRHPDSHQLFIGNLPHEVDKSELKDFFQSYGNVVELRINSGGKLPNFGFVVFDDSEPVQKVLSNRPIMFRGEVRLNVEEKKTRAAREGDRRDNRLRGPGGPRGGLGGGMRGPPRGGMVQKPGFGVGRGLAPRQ
Method: RNA Bind-n-Seq
Form: RNA
Matrix: in vitro
Concentration: 1 µM
Notes: whole 134-nt RNA, ends assumed
With: 150 mM KCl
Relative to: input library
Reading: higher = stronger binding
Quantity: log2 enrichment
Constant ends, left off below: GGGAGUUCUACAGUCCGACGAUC … UGGAAUUCUCGGGUGUCAAGG
UGGGAGGUGGAUUUUGUUUAUUUUUUUAGCUCAUUUCCAGGGGUGGGAAUUUUUUUUUAAUAUGUGCCAUGAAUAAAGUUGUUUUUGAAA: 3.68
UGUGCUACACAUCGUAUGUACCGAAUCGGGCCCCCCCGGGGCCCCCCCGGGCCCCCCCGGGGAAAGUAUUAUGUUACGCCGUUCGGAUCU: -2.62
AAGUCCUGUGCUACACAUCGUAUGUACCGAAUCGGUUUUUUUGGUUUGGUUUUUGGAAAGUAUUAUGUUACGCCGUUCGGAUCUGCACUU: -1.89
CUCAAGUCCUGUGCUACACAUCGUAUGUACCGAAUCGGCCGGCCGGGGCCGGGAAAGUAUUAUGUUACGCCGUUCGGAUCUGCACUUCCA: -1.11
GUCCUGUGCUACACAUCGUAUGUACCGAAUCGGGAAAAAGGGAAAAAGGGGAAAAAGGAAAGUAUUAUGUUACGCCGUUCGGAUCUGCAC: -1.12
UGUAGAAAAGGCACUGGACUAACACUUGGCUGUAUCUUGUAACAGGCAUGUUAUGUUACCCAGAGAACUUUCCAAACAAGUACCUAAAAC: -0.527
CCUGUGCUACACAUCGUAUGUACCGAAUCGGGAAAAAAAGGAAAAAAAGGAAAAAAAGGGGAAAGUAUUAUGUUACGCCGUUCGGAUCUG: -1.77
UCAAGUCCUGUGCUACACAUCGUAUGUACCGAAUCGGGUGGGUGGGAAAAAGGGAAAGUAUUAUGUUACGCCGUUCGGAUCUGCACUUCC: 1.19
CAAGUCCUGUGCUACACAUCGUAUGUACCGAAUCGGGAAAAAGGGAGGGUUUGGGAAAGUAUUAUGUUACGCCGUUCGGAUCUGCACUUC: 1.97

Set 3
Target: Centromere-binding protein 1, full length, N-terminal tag (CBF1, Saccharomyces cerevisiae, UniProt P17106, residues 1-351)
Chain of UniProt P17106 (whole entry, looked up): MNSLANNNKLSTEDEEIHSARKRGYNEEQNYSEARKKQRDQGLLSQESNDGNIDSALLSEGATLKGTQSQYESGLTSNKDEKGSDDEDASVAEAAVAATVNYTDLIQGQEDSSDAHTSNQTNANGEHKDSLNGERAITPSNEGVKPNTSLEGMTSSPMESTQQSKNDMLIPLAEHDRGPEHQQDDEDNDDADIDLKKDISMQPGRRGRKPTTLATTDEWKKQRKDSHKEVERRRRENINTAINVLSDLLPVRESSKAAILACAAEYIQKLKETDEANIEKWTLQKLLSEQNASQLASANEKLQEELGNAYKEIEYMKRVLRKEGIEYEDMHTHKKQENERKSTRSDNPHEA
Method: protein-binding microarray
Form: double-stranded DNA, one strand shown
Matrix: in vitro
Concentration: 0.8 µM
Notes: whole 60-bp probe, no competitor
Reading: higher = stronger binding
Quantity: fluorescence intensity
Constant ends, left off below: … GTCTTGATTCGCTTGACGCTGCTG
TGTACGAAGCTATACCACATGTTTATAGTAGTTAGG: 667 a.u.
CTATGAGAACGTTATCACGCGGATTATTTAGTTTTC: 907 a.u.
CTAAGCGTCAATGCGCACGTAATGGCTTCGAAGTTC: 494 a.u.
CTATGTACAACATTCCACATGACGTAGGAATTGTTC: 999 a.u.
GAAGATTTTGAGCGTGATATTATTCCAATGGCTTAG: 615 a.u.
TGTACGAAGCTATTGTGCGTGTATATAGTAGTTAGG: 547 a.u.
CTAGAAAAGAATTAAAACGTGAAATTTCCTTTTTTC: 548 a.u.
CTAGAGATAAAAATAAACGTGGTGGCTCCCGAGTTC: 550 a.u.
CCTAACTACTATAAACGCACCACATAGCTTCGTACA: 539 a.u.
TGTACGAAGCTATAATTCACCACTATAGTAGTTAGG: 521 a.u.
CCTAACTACTATAATCACACTTTATAGCTTCGTACA: 543 a.u.
GAACCAATTTGTAGTCATGACGACATAGCTGGGTAG: 580 a.u.
CTATTGTGTGAGTTCCACGTGCGGATGACTTAATTC: 2180 a.u.
GAATAATGTACTAGTAACGTGAATACTAGTCCATAG: 696 a.u.
CTAAATTTTTCGCGTACCACCACCATTACACATTTC: 552 a.u.
GAAAGCAAATTCACACACGTTGTAGACGGCTGTTAG: 527 a.u.

Set 4
Target: Interferon regulatory factor 7, full length, phosphomimetic (IRF7, Homo sapiens, UniProt Q92985, residues 1-503, S101K/S471D/S472D/S475D/S476D/S477D/S483D/S484D/S487D)
Chain of UniProt Q92985 (whole entry, unmodified, looked up): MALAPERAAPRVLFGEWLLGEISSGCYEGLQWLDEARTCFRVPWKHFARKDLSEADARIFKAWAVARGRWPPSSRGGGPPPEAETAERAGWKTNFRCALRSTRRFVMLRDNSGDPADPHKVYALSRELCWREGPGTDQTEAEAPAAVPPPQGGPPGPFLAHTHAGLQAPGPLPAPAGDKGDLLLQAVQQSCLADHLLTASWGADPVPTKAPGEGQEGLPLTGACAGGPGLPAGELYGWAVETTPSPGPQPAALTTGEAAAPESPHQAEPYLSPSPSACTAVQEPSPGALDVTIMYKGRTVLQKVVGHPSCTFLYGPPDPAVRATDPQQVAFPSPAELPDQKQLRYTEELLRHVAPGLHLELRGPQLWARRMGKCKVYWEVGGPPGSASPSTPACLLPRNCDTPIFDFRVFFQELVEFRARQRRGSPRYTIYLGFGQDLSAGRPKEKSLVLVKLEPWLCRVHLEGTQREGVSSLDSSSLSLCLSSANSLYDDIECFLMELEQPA
Method: protein-binding microarray
Form: double-stranded DNA, one strand shown
Matrix: in vitro
Concentration: 250 nM
Notes: 60-bp whole probe
With: salmon DNA 0.4 mg/ml
Relative to: random background probes
Reading: higher = stronger binding
Quantity: log fluorescence
Constant ends, left off below: GCCTAGCAC … GTCTTGATTCGCTTGACGCTGCTG
TTAGGTCTCAGACTGGGTTAGTGCTAG: -0.0727 z-score
TTAGATTTCAGGTATCGATTAGTGCTA: 1.52 z-score
TCATGCTTGCGTCTGGGACTGTGCTAG: -0.802 z-score
TTAGGACTGGGGTATCGATTAGTGCTA: 0.3 z-score
TCAAATTTTCATTTTCCACTGTGCTAG: 1.46 z-score
GACGATTCAAGTTTCGAGACGTGCTAG: 4.03 z-score
CTAGGTTTCGGTTCCGGTTAGTGCTAG: 12.6 z-score
TTAGGTAGCGGTATCGGTTAGTGCTAG: 0.452 z-score
GACGGTATCCTTCTCCTGATGTGCTAG: 0.241 z-score
GACGGATTGGGACTGGGGACGTGCTAG: -0.382 z-score
TTAGCTATCGGGACTGGGTTAGTGCTA: -0.503 z-score
TCATGGATGTGTTTTAAACTGTGCTAG: -0.425 z-score
GACGGTCTCGGTTTCGCGACGTGCTAG: 6.39 z-score
GACGGTTCCCTTTTCTTGACGTGCTAG: 2.43 z-score
TCCATTTTCTGAATGCTACTGTGCTAG: 1.7 z-score
TCAAAAATGATTTTTTTACTGTGCTAG: -0.0224 z-score
CTTTCTCTCTGTGACACAGAGTGCTAG: 2.74 z-score

Excerpt of the above (set 2):
CCUGUGCUACACAUCGUAUGUACCGAAUCGGGAAAAAAAGGAAAAAAAGGAAAAAAAGGGGAAAGUAUUAUGUUACGCCGUUCGGAUCUG: -1.77
UCAAGUCCUGUGCUACACAUCGUAUGUACCGAAUCGGGUGGGUGGGAAAAAGGGAAAGUAUUAUGUUACGCCGUUCGGAUCUGCACUUCC: 1.19
CAAGUCCUGUGCUACACAUCGUAUGUACCGAAUCGGGAAAAAGGGAGGGUUUGGGAAAGUAUUAUGUUACGCCGUUCGGAUCUGCACUUC: 1.97
